Measurements from different studies.
Protocols differ between the studies behind these lines.
MET: Hepatocyte growth factor receptor (MET, Homo sapiens, UniProt P08581)

COc1ccc(C(=O)/C=C/c2ccccc2-c2c[nH]c3ccc(C#N)cc23)c(O)c1 — inhibition (MET; enzyme activity, inhibitor; 20 µM): 20%
O=C(Cc1ccc(OCc2ccccc2)cc1)NC1(C(=O)O)CCN(C(=O)c2ccc(-c3cccc(Cl)c3)cc2)CC1 — activity vs control (MET; enzyme activity, inhibitor; 10 µM): 144%
Cc1cnc2nc1Nc1cccc(c1)COC/C=C/COCc1cc(ccc1OCCN1CCOCC1)N2 — remaining activity (Hepatocyte growth factor receptor (MET, Homo sapiens, UniProt P08581, M1250T); concentration not given; relative to: untreated control): 95%
C=CC(=O)Nc1cccc(-c2cnc3[nH]cc(C(=O)NC(C)(C)C)c3n2)c1 — inhibition (MET; enzyme activity, inhibitor; 0.1 µM): 6%
CNC(=O)C[C@H](Cc1ccc(C#N)cc1)NC(=O)c1cc(-c2ccc(CN[C@H](C)c3ccc(C)cc3)o2)ccc1Cl — activity vs control (MET; enzyme activity, inhibitor; 1 µM): 99%
CN1CCN(Cc2ccc(-c3ccc(CO[C@H]4CCC[C@@H]4NC(=O)c4cc(-c5cnn(C)c5)cnc4N)cc3)cc2)CC1 — inhibition (MET; enzyme activity, inhibitor; 0.1 µM): -2%
CN1CC[C@@H](COc2cnc(C#N)cc2-c2ccn3nc(NC(=O)C4CC4)cc3c2)C1 — inhibition (MET; enzyme activity, inhibitor; 1 µM): 9%
NC(=O)C[C@H]1CCc2sc3ncnc(O[C@H]4CC[C@H](N5CCOCC5)CC4)c3c21 — inhibition (MET; enzyme activity, inhibitor; 10 µM): -8%
C=C1CCCCCCCCCC(CO)C1=O (stereo not drawn) — remaining signal (MET; cell-free assay; 10 µM): 89%
Cc1[nH]nc2c1N=C(c1ccccc1Cl)c1cnc(N3CCOCC3)cc1N2 — inhibition (MET; enzyme activity, inhibitor; 0.5 µM): 5.1%
Cc1cccc(O[C@H]2CCC[C@@H](C(C)CNCc3ccncc3)C2)c1 (relative stereo) — inhibition (MET; kinase activity, kinome panel screening; 10 µM): -5%
O=c1c(-c2ccc(Cl)c(CN3CCOCC3)c2)coc2cc(O)ccc12 — remaining activity (MET; enzyme activity, inhibitor; 1 µM): 111%
